Published values gathered from unrelated publications.
Each numbered part is a random draw from the data of one study; scales do not carry over between parts. Substitutions count along the parent as printed.

Block 1 — technique: universal PBM; molecule type: double-stranded DNA, one strand shown; sample: in vitro; tested at: not given; reading: higher = stronger binding
Target: Sal-like protein 4, full length isoform B (SALL4, Homo sapiens, UniProt Q9UJQ4-2, residues 1-616)
Setting: 8-mer, flanks averaged, mean of replicates
Construct (chain): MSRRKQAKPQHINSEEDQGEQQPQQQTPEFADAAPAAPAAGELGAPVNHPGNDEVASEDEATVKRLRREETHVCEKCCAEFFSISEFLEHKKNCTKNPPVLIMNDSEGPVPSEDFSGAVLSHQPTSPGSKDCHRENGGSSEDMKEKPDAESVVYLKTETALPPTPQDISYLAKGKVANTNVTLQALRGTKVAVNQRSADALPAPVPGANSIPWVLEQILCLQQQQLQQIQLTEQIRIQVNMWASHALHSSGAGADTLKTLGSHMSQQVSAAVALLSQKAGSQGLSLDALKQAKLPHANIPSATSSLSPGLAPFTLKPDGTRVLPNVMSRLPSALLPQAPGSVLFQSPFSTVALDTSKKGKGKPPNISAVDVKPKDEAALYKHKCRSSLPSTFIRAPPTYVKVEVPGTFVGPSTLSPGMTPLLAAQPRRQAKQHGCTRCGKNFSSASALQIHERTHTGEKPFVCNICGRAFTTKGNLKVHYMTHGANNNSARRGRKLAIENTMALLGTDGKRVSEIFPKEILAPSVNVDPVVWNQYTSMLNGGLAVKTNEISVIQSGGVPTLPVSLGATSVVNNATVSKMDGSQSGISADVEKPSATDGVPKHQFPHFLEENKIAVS
Oligonucleotide	E-score
CACATAGG	0.0146
AAGGGCCA	-0.13
GGTCTACA	0.0691
TCACAGAA	0.152
GATTTAGA	0.123
CTTTCCCA	-0.0859
AGCGGGCA	-0.202
GCTAAGTA	0.071
AGTCGGTA	-0.105
ACACTCCC	-0.157
ACAAGCGA	-0.0406
TTATGAAA	0.456
CCCATCCA	-0.00449
AGCCGGGC	-0.412
CGGAAGAC	-0.238
AACGCCGA	-0.0353
ACGCGAAC	-0.126
ATTCACAG	0.0603
CATTGGAC	-0.0703
AAATTAAC	0.249
ACTTCGGC	-0.0956
GCAGGGTA	0.0182
CAGCTACA	-0.00552
CAATACGA	0.252
TCGGGCAA	-0.125

Block 2 — target: CCNA2, cyclin fold, Cln2 fusion (human); technique: yeast growth competition, sequencing; sample: yeast; setting: weak parent motif; relative to: not given; reading: higher = stronger binding
Starting sequence: MASTL docking peptide (human); PMIAKNLMCELDE
Variant	normalised enrichment score
PMIAKVLMCELDE [N6V]	-0.0235
PRIAKNLMCELDE [M2R]	0.259
PMIAKNPMCELDE [L7P]	-0.203
PMIAKGLMCELDE [N6G]	-0.237
PMIAKNLMCCLDE [E10C]	0.0949
PMIAKNLMCEHDE [L11H]	-0.0649
PMIHKNLMCELDE [A4H]	-0.154
PMIAKNLMCELPE [D12P]	-0.0952
PMTAKNLMCELDE [I3T]	-0.107
PMIAKNLMCEVDE [L11V]	-0.327
PMIAKNLMCDLDE [E10D]	-0.336
PMIAKNLMFELDE [C9F]	0.382
PMKAKNLMCELDE [I3K]	0.0286
PMIAKWLMCELDE [N6W]	0.563
PMIAKQLMCELDE [N6Q]	-0.0344
PMIAKNLFCELDE [M8F]	0.21
PMIYKNLMCELDE [A4Y]	0.0543

Block 3 — technique: RNA Bind-n-Seq; molecule type: RNA; sample: in vitro; tested at: not given; relative to: input RNA pool; reading: higher = stronger binding
Target: RING finger protein unkempt homolog, zinc fingers 1-6, GST-SBP tag (UNK, Homo sapiens, UniProt Q9C0B0, residues 30-357)
Chain of UniProt Q9C0B0 (30-357, looked up): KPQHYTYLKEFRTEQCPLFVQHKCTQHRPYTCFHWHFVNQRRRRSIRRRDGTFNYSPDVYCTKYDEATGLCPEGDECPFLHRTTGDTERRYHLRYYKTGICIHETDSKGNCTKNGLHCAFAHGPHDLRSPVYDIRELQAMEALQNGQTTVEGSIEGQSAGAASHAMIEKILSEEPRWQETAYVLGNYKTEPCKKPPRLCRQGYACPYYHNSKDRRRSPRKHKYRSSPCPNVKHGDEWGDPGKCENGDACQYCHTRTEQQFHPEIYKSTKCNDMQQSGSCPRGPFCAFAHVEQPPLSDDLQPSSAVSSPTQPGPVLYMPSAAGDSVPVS
Setting: RNA with constant flanks, human and mouse sites, ends assumed
Shared flanks, not repeated: GGGAGUUCUACAGUCCGACGAUC … CAACAGAGGAUUGAGCAUCA
Oligonucleotide	bound/input enrichment [ratio]
AUCGUACAUCGAGACCUCAAGGCUGAAAAUCUAUUGUUAGAUGCCGAUAUGAACAUUAAAAUAGCAGAUUUCGGUUUUAGCAAUGAAUUUACUGUUGGCGGUAAACUCGACACGUUUUGU	0.448
GAAUUUGCCUAUACUUCUGUACUAAGUUUUGACUUUUGUAGCAUGGCUGAUGUAGCCGUCUUAGCUCGCCACCUUUUUAUGUCAGAAGUUUUAGAAAUUUGUGAAAGUGUACAUAAACUA	0.465
UAUCUGUCUUCCUUAAGUAUUUUUUAGGGUUUUGUUUUUUUUUUUGUUUGUUUGUUUGUUUGUCUUCACUUUUCCCCCAGGUCUGUUGAGCUGUAUGAGAUUCAUUCAUACUUCAUUUAU	34
AAAAGUAAGAAUGCUUUUGAUUAUUCUGAAGGAACUGACACAGCAGUAGAUCUGACUUCAGGGAGAGUUACUACAGGUGAGGUAAUGGAUUAUUCAAGCAAGACUACAGGUCCAUAUCCA	0.172
UUAGACUGUAAGCUUGCCAAGGGCAGGGACUGUGUUUUAUUCAUCUGUAUCCAUCACAGCACUAGGCGUGGUGCAUAGCACACAGCAGUUGCUCAAUAAAUGUUUGUUGGAUUAAAUCCU	0.408
GAAUCCUGACUGUUUGGGACAUGCAGAGCUUGUCUAUGAGUAUACACUGGGUGAGGAGAAGUUCACCUUUAUUGAGAAGUGUAACAAUCCCCGUUCUGUCACUUUACUGGUUAAAGGACC	0.0561

Block 4 — technique: DHFR PCA, deep sequencing; sample: yeast; together with: (+)-ABA 17 µM; relative to: wild-type fitted maximum; reading: higher = stronger binding
Target: ABI1, truncated, D143A, DHFR fusion (Arabidopsis thaliana)
Setting: methotrexate growth selection, single substitutions
Starting sequence: PYL1, truncated, DHFR fusion (Arabidopsis thaliana); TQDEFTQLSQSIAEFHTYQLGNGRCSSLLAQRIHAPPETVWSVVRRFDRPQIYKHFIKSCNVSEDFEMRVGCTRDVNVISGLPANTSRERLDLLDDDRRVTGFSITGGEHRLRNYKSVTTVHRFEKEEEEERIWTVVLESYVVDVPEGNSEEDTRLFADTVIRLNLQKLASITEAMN; partner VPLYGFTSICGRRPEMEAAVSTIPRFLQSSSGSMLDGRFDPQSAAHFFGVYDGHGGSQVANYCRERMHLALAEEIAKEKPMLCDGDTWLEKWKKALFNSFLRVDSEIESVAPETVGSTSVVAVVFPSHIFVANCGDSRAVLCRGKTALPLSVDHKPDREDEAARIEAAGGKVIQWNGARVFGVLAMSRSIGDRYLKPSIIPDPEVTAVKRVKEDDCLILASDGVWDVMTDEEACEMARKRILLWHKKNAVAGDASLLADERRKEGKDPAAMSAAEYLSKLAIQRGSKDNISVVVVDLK
Variant	relative binding score [%]
T6G	84.6
F103P	-11.5
F5E	71.5
D95F	10
Q7A	85.4
D65L	54.4
S104D	-16.3
L8N	45.6
V121L	65.6
V44G	-2.74
D96L	3.38

Block 5 — technique: protein-binding microarray; molecule type: double-stranded DNA, one strand shown; sample: in vitro; tested at: 250 nM; setting: 60-bp whole probe; together with: salmon DNA 0.4 mg/ml; relative to: random background probes; reading: higher = stronger binding; shared flanks, not repeated: GCCTAGCAC … GTCTTGATTCGCTTGACGCTGCTG
Target: Interferon regulatory factor 5, full length, phosphomimetic (IRF5, Homo sapiens, UniProt Q13568-2, residues 1-514, K96S/S451D/S453D/S456D/S462D)
Oligonucleotide	log fluorescence [z-score]
GACGGACTACTTATCCTGACGTGCTAG	-0.343
TTAGGACTGGACTGTCGGTTAGTGCTA	-0.0842
ACCCTCATTCTACTATCGATGTGCTAG	5.04
GATGATCTCAGTCTCGAGACGTGCTAG	0.079
TTAGGACTGCTGATCCTTTAGTGCTAG	-0.335
TCATTTCTATATTTGCTACTGTGCTAG	2.25
GGCGGTTTCGGTTCCGGGACGTGCTAG	10
GACGGTCTCGGAGTGGGGACGTGCTAG	-0.408
GACGATATCAGTTTCGAGAGGTGCTAG	6.37
TCACTTAGGTTTTCTGGTACTGTGCTA	0.754
TTAGGTATCGGTTTCAGTTAGTGCTAG	9.31
TGGTCTTTCCACTTTCTTTTGTGCTAG	2.04
TCATTTTCAATTTTTGCACTGTGCTAG	2.38
TCATTTATGTACTCTCTCACTGTGCTA	0.805
ATAGGTATCGACTTTCGGTTAGTGCTA	10.3
